Assay results gathered from unrelated publications.
Numbered parts are unrelated; each lists some results of a single study. Positions count from the first letter of the parent shown.
Chain of UniProt P08631 (whole entry, looked up): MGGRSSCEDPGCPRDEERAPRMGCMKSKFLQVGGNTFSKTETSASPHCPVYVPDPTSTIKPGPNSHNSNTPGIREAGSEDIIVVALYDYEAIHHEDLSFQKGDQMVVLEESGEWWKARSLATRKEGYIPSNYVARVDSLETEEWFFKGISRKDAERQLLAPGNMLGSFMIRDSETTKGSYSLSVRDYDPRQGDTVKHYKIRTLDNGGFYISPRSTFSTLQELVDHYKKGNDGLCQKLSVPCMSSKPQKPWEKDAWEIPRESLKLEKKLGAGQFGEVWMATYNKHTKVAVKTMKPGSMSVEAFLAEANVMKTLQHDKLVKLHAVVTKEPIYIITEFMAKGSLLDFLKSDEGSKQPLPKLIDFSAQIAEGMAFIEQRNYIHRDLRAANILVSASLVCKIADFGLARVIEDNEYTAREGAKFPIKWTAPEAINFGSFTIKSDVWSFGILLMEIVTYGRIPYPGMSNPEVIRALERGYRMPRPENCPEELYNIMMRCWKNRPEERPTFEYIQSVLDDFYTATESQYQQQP

Study 1
Target: Sal-like protein 4, full length isoform B (SALL4, Homo sapiens, UniProt Q9UJQ4-2, residues 1-616)
Method: universal PBM
Molecule type: double-stranded DNA, one strand shown
Medium: in vitro
Tested at: not given
Notes: 8-mer, flanks averaged, mean of replicates
Direction: higher = stronger binding
Target sequence (chain): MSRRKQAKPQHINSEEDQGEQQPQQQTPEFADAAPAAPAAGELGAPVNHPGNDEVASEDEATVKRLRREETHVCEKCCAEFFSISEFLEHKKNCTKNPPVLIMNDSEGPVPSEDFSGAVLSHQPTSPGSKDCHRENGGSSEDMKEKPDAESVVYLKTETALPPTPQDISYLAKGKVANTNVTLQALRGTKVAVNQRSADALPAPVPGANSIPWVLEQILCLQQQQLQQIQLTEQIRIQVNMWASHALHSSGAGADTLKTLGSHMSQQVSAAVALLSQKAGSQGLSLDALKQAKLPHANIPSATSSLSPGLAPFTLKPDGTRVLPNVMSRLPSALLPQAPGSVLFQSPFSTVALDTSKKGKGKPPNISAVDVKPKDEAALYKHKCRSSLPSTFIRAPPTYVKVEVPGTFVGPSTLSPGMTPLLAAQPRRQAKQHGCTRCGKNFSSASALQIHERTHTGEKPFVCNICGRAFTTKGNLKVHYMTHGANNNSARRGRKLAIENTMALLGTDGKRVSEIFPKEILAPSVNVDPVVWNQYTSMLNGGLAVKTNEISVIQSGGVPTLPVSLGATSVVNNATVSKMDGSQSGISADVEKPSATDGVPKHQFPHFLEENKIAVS
For `GGGACGTA`, the E-score was -0.0927.
With `AAGGTCGT` the E-score was 0.00841.
With `CTCACGTA` the E-score was -0.0566.
For `GGGTCCAC`, the E-score was -0.294.
For `ACAGTGGT`, the E-score was -0.0118.
With `TCCTGCGA` the E-score was -0.139.
For `AAGCAAGA`, the E-score was 0.109.
`AGGGGCAA` gave an E-score of -0.12.

Study 2
Target: ABI1, truncated, D143A, DHFR fusion (Arabidopsis thaliana)
Method: DHFR PCA, deep sequencing
Medium: yeast
Notes: methotrexate growth selection, single substitutions
Added: (+)-ABA 0.11 µM
Reference: wild-type fitted maximum
Direction: higher = stronger binding
Parent: PYL1, truncated, DHFR fusion (Arabidopsis thaliana); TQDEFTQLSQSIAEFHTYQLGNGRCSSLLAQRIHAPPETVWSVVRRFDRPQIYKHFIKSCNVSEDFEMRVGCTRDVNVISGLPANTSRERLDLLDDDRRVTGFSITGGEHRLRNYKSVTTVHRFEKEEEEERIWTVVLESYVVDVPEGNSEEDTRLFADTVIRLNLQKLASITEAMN; partner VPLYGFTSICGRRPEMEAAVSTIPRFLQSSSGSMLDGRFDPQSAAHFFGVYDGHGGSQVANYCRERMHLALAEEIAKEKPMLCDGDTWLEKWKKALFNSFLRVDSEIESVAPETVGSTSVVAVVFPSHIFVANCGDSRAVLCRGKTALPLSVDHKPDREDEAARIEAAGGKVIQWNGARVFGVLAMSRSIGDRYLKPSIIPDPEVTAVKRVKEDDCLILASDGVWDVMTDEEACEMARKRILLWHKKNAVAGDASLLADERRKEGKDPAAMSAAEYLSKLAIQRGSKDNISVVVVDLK
`Y18R`: “relative binding score” 3.16%.
`E130S`: “relative binding score” 39.9%.
For `V100M`, “relative binding score” read 5.13%.
`D144R` — result for “relative binding score”: -5.82%.
For `E38L`, “relative binding score” read -1.2%.
For `D75N`, “relative binding score” read 31.4%.
For `D97Q`, “relative binding score” read 35.8%.
`R98I`: “relative binding score” 5.58%.

Study 3
Target: RNA binding protein fox-1 homolog 2, RRM domain, GST-SBP tag (RBFOX2, Homo sapiens, UniProt O43251-10, residues 100-194)
Method: RNA Bind-n-Seq
Molecule type: RNA
Medium: in vitro
Tested at: 365 nM
Notes: natural RNA segment, single round, ends assumed
Reference: no-protein control
Direction: higher = stronger binding
Residues (chain): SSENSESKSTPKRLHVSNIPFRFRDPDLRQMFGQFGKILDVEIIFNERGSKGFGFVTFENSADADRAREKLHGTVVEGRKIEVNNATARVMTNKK
`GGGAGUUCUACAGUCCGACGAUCGCUGAAACCAAGAGCACAAUUCCCAUUAAGAGAAGGAUCUCUGUGCUGUAAACUAAACAAAUUGUGCAUUUUUUCUGGGGCCAUUGUUUUUGGUUUAUUUUGUUAUUUUGUGGAAUUCUCGGGUGCCAA`: “RBNS enrichment (R)” 0.856.
For `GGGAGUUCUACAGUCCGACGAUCCUUUCCUAACUCGUGCUCCCUUCCGCCUUCUUUUCCGUACUGUGAAGAAAGAACUCUCCACCCCAGCUCCCACCCUGCCCUGGCCUGGGUGGAGGAACUGUGCCUCCAUCUGGAAUUCUCGGGUGCCAA`, “RBNS enrichment (R)” read 1.07.
For `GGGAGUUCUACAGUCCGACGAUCGAUGUAAAACACAAGCCAGACAGAUGGCAAAGACUAGACUUGCCCGCAAAGAAAUUGAGUUGAUUAGGCAAGUCUAUACAAUUAGAGGCAAAGGUCACAGUGAUGCAAAAUGGAAUUCUCGGGUGCCAA`, “RBNS enrichment (R)” read 0.563.
For `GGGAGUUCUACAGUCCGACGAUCCGUUAAAUUUUCAGUCCAGUUAUGAACAGCAAGUGUUGAACUCUUUCUGCUUGUUUUGAUUCAAAGUGCAGUUACUGAUGUUGUUUUGAUUAUGCAACUAAGUAGGCCUCUGGAAUUCUCGGGUGCCAA`, “RBNS enrichment (R)” read 0.988.
`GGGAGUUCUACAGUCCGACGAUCCCCUCAGGAUGCAGGGUGCUGGGUCUUCUGGUUUUGUUUGGGUUAAAACAGAACUUUCCCAUUAUCUGUAGGGAACAGAGUAACGCAUAGUCUUUAAAAAUCAGUCCCAGUGGAAUUCUCGGGUGCCAA` — result for “RBNS enrichment (R)”: 0.891.
For `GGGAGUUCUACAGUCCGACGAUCCCCACAGCCUUCUGGCUGCGACAUUAUAGAAUCGGCCGUGUCCCCCCUGGUGGGGGAUUGGGGAUCUGUGUUUAGCCAUUUAUAUCUACUUUAGCUGUUAAAGAGGUCCAUGGAAUUCUCGGGUGCCAA`, “RBNS enrichment (R)” read 0.253.
Under “RBNS enrichment (R)”, `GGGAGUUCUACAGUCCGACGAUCUGCAGCCAGUGUGCUCUUGAAUAACAAGCAGGUUAAGGGGCUGGAGGAUCAGAAAGAUACCCCAGCUCCAUCAUAGUUUGAGUCAUGUUUCUAUGCCACUUUGGUCCCCAUGGAAUUCUCGGGUGCCAA` is recorded as 0.411.
`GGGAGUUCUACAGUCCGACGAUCAAAGCCCCUAUGGCUAUAACUUUAAAUAAACUAAACCAAAAAUGUUAUUGAUGUUUUAUAUAGAGAGUAGGAUCAUUAGUUUUUGUUACUGUAAUGUUUGAUGUCUCAAAUGGAAUUCUCGGGUGCCAA` — result for “RBNS enrichment (R)”: 0.608.

Mixed results
For `CN(C)CC#Cc1ccc(OCCCc2sc(N3CCc4cccc(C(=O)Nc5nc6ccccc6s5)c4C3)nc2C(=O)O)c(F)c1`, the remaining binding was 100% (Tyrosine-protein kinase HCK (HCK, Homo sapiens, UniProt P08631); cell-free assay, competition with immobilised ligand; 1 µM).

Excerpt of the above (study 2):
`R98I`: “relative binding score” 5.58%.
`Y18R`: “relative binding score” 3.16%.
`D144R` — result for “relative binding score”: -5.82%.
